Published values collected from several papers.
Several values in a cell are separate wells, animals, samples, runs or records. ± gives the spread as reported. Values after ≈ are worked out from the molar mass of the structure shown.

CNCC(=O)N[C@@H](CO)C(=O)N[C@H]1[C@H](O)[C@@H](O)[C@H](n2ccc(N)nc2=O)O[C@@H]1C(N)=O  EC50 (Tobacco mosaic virus; curative activity; plant in vivo): 331 ± 2.8 µg/mL (≈ 746 µM)
NS(=O)(=O)c1ccc(NN=C2C(=O)Nc3ccc(C(=O)NCCCn4ccnc4)cc32)cc1  metabolic activity (Aspergillus fumigatus; 20 µM; baseline: untreated): ≥ 80%
COc1ccccc1-c1cc(Nc2cccc(CS(N)(=O)=O)c2)ncn1  inhibition (murine hepatitis virus; viral replication, nanoluciferase reporter; DBT; 1 µM; baseline: DMSO vehicle): -17%
OB(O)c1csc2ccccc12  biofilm formation (Staphylococcus aureus; crystal violet; USA300 wild type; 5 µM; baseline: wild type untreated): 70.8% and 51.8% and 51.2%
COC(=O)C1=C(C)NC(C)=C(C(=O)OC(C)(C)CN(C)CCC(c2ccccc2)c2ccccc2)C1c1cccc([N+](=O)[O-])c1 (stereo not drawn)  metabolic activity (Aspergillus fumigatus; Alamar blue; 31.25 µg/mL, 48 h, with: caspofungin 0.2 µg/mL): 19.6% and 22.9%
COc1cc(Nc2nccc(-c3cnn4nc(OC)ccc34)n2)cc(C(F)(F)F)c1  inhibition (murine hepatitis virus; viral replication, nanoluciferase reporter; DBT; 1 µM, 10 h; baseline: DMSO vehicle): 61%
CC[C@H](C)[C@H](NC(=O)[C@H](C)NC(=O)[C@H](CCCCN)NC(=O)[C@H](CC(C)C)NC(=O)[C@H](C)NC(=O)[C@@H](NC(=O)[C@H](Cc1c[nH]cn1)NC(=O)[C@H](CC(C)C)NC(=O)[C@@H](NC(=O)[C@@H](NC(=O)[C@H](CCCCN)NC(=O)[C@H](C)NC(=O)[C@H](C)NC(=O)[C@H](CO)NC(=O)[C@H](CCCCN)NC(=O)[C@H](Cc1ccccc1)NC(=O)[C@@H](NC(=O)[C@H](CCCCN)NC(=O)[C@H](CC(C)C)NC(=O)[C@H](Cc1ccccc1)NC(=O)[C@H](CO)NC(=O)[C@H](CCCCN)NC(=O)[C@H](Cc1c[nH]c2ccccc12)NC(=O)[C@H](CCCCN)NC(C)=O)[C@@H](C)O)[C@@H](C)O)C(C)C)[C@@H](C)O)C(=O)N[C@@H](CO)C(=O)N[C@@H](CO)C(N)=O  MBC90 (Klebsiella pneumoniae; ATCC 1705): 16 µg/mL (≈ 5.45 µM)
CC[C@H](CC[C@@H](C)[C@H]1CC[C@H]2[C@@H]3CCC4=CC(=O)CC[C@]4(C)[C@H]3CC[C@]12C)C(C)C  antileishmanial activity (Leishmania mexicana; propidium iodide flow cytometry; promastigotes; concentration not given, 48 h): inactive
N=C(N)NCCC[C@H](NC(=O)[C@H](Cc1c[nH]c2ccccc12)NC(=O)[C@H](CCCNC(=N)N)NC(=O)[C@H](Cc1c[nH]c2ccccc12)NC(=O)[C@H](Cc1c[nH]c2ccccc12)NC(=O)[C@H](Cc1c[nH]c2ccccc12)NC(=O)[C@H](CCCNC(=N)N)NC(=O)[C@H](Cc1c[nH]c2ccccc12)NC(=O)[C@@H](N)CCCNC(=N)N)C(=O)N[C@@H](Cc1ccccc1)C(N)=O  MIC (Candida albicans; broth microdilution; 56452, RPMI 1640-MOPS; 48 h, 30 °C): 16 µM (≈ 27.5 µg/mL)
CC(=O)Nc1cccc(-n2c(=O)n(C3CC3)c(=O)c3c(Nc4ccc(I)cc4F)n(C)c(=O)c(C)c32)c1  inhibition (murine hepatitis virus; viral replication, nanoluciferase reporter; DBT; 1 µM, 10 h; baseline: DMSO vehicle): 1%
Cn1c(=O)ccc2ccc(F)c(CCNC[C@H]3CN(c4cnc5c(n4)NC(=O)CO5)C(=O)O3)c21  MIC90 (Moraxella catarrhalis): < 0.015 µg/mL
Cn1cnc2c(F)c(Nc3ccc(Br)cc3Cl)c(C(=O)NOCCO)cc21  metabolic activity (Aspergillus fumigatus; 20 µM; baseline: untreated): ≥ 80%
CC1(C)CC(=O)c2c(C(F)(F)F)nn(-c3ccc(C(N)=O)c(N[C@H]4CC[C@H](O)CC4)c3)c2C1  selectivity index (human alphaherpesvirus 1; K26 GFP, 3D skin equivalent, submerged; baseline: CC50 over IC50): 22.8
CCc1c([N+](=O)[O-])oc2ccc3ccccc3c12  MIC90 (Mycobacterium avium subsp. hominissuis; REMA; ATCC 25291): 4 µg/mL (≈ 16.6 µM)
Nc1ncnc2c1ncn2[C@@H]1O[C@@H]2COP(=O)(O)O[C@H]3[C@@H](O)[C@H](n4cnc5c(=O)[nH]cnc54)O[C@@H]3COP(=O)(O)O[C@H]2[C@H]1O  fold enrichment (West Nile virus; RNA sequencing Reactome analysis, refers to: Cell Cycle Checkpoints (R-HSA-69620); HFF-1; concentration not given, upregulated pathways, with: West Nile virus infection; baseline: WNV-infected without compound): 3.85
CC(C)[C@H](NC(=O)[C@H](CCCNC(=N)N)NC(=O)[C@H](Cc1c[nH]c2ccccc12)NC(=O)[C@H](CCCNC(=N)N)NC(=O)[C@H](Cc1c[nH]c2ccccc12)NC(=O)[C@H](Cc1c[nH]c2ccccc12)NC(=O)[C@H](Cc1c[nH]c2ccccc12)NC(=O)[C@H](CCCNC(=N)N)NC(=O)[C@H](Cc1c[nH]c2ccccc12)NC(=O)[C@H](CCCNC(=N)N)NC(=O)CN)C(N)=O  MIC (Candida albicans; broth microdilution; CGMCC 2.209, RPMI 1640-MOPS; 48 h, 30 °C): 8 µM (≈ 13.8 µg/mL)
Cc1c2c(nn1C)CSCc1cc(n(C)n1)CSc1cc(c3ccccc3c1)OCCCc1c(C(=O)O)n(C)c3c-2c(Cl)ccc13  log2 fold change (Staphylococcus aureus; label-free quantitative proteomics, refers to: SAOUHSC_00864 protein; SA113; concentration not given; baseline: untreated control): -5.3
CC1=C(C#N)[C@@H](c2ccc3[nH]nc(C)c3c2)C(C#N)=C(c2ccc(Cl)cc2)N1  inhibition (murine hepatitis virus; viral replication, nanoluciferase reporter; DBT; 1 µM, 10 h; baseline: DMSO vehicle): 0%
O=[N+]([O-])c1cc2cc3ccc4oc([N+](=O)[O-])cc4c3cc2o1  MIC90 (Mycobacterium avium subsp. hominissuis; REMA; ATCC 25291): 0.125 µg/mL (≈ 0.419 µM)
CCCCCCCCCCCCCCCC(=O)NS(=O)(=O)Oc1ccc(OC)cc1  MIC90 (Bacillus cereus; 1056): 3.13 µg/mL (≈ 7.09 µM)
N=C(N)NCCC[C@H](NC(=O)CN)C(=O)N[C@@H](Cc1c[nH]c2ccccc12)C(=O)N[C@@H](CCCNC(=N)N)C(=O)N[C@@H](Cc1c[nH]c2ccccc12)C(=O)N[C@@H](Cc1c[nH]c2ccccc12)C(=O)N[C@@H](Cc1c[nH]c2ccccc12)C(=O)N[C@@H](CCCNC(=N)N)C(=O)N[C@@H](Cc1c[nH]c2ccccc12)C(=O)N[C@@H](CCCNC(=N)N)C(=O)N[C@@H](Cc1c[nH]c2ccccc12)C(N)=O  MIC (Candida albicans; broth microdilution; SP3902, RPMI 1640-MOPS; 48 h, 30 °C): 8 µM (≈ 14.5 µg/mL)
CS(=O)(=O)CCCn1c(Cn2c(=O)n(CC(F)(F)F)c3ccncc32)cc2cc(Cl)ccc21  LS mean difference vs placebo (respiratory syncytial virus; RT-qPCR; hospitalized infants 1-24 months, nasal swab; oral, 9, 6 or 5 mg/kg daily, day 4, high dose by age cohort; baseline: placebo): -2.14 log10 copies/mL
CCCC(CCC)C(=O)O  log2 fold change (Artemia franciscana; LC-MS/MS metabolomics, refers to: 1-aminocyclopropanecarboxylic acid; larvae; concentration not given, 24 h, LC1 concentration; baseline: vehicle): 0.963
Cc1c[nH]c2nccc(Oc3c(F)cc(Nc4cc(Cl)nc(N)n4)cc3F)c12  inhibition (murine hepatitis virus; viral replication, nanoluciferase reporter; DBT; 1 µM, 10 h; baseline: DMSO vehicle): 51%
CC(=O)N1CCN(c2ccc(OCC3COC(Cn4ccnc4)(c4ccc(Cl)cc4Cl)O3)cc2)CC1 (stereo not drawn)  MIC (Candida parapsilosis; CGMCC 2.399; 48 h, 30 °C): 8 µM (≈ 4.25 µg/mL)
CCOC(=O)COc1ccc2ccc3oc([N+](=O)[O-])cc3c2c1  MIC90 (Enterobacter cloacae; REMA): > 32 µg/mL
C=C(CN(C(=O)c1c(C(F)F)nn(C)c1F)C1CC1)c1ccc(Cl)cc1Cl  colony diameter (Phytophthora capsici; 1.56 mg/L): 17 mm and 18 mm and 13 mm and 21 mm and 14 mm
Nc1c(C(=O)NCc2ccc(C(=O)NCCCC3CCCCC3)cc2)cnn1-c1ccccc1  inhibition (murine hepatitis virus; viral replication, nanoluciferase reporter; DBT; 1 µM, 10 h; baseline: DMSO vehicle): 13%
CNC(C)C1CCC(N)C(OC2C(N)CC(N)C(OC3OCC(C)(O)C(NC)C3O)C2O)O1 (stereo not drawn)  MLC (Bacillus cereus; broth microdilution): 4 ± 2 µg/mL (≈ 8.38 µM)
CN(C)C(=O)Cn1cc(-c2ccc(-c3cncc4ccccc34)cc2)cn1  inhibition (murine hepatitis virus; viral replication, nanoluciferase reporter; DBT; 1 µM, 10 h; baseline: DMSO vehicle): 41%
COc1cc2ccc3oc([N+](=O)[O-])cc3c2cc1OC  MIC90 (Mycobacterium avium subsp. hominissuis; REMA; ATCC 25291): 0.25 µg/mL (≈ 0.915 µM)
CN(C(=O)c1ccccc1)c1cc(N(C)c2ccc3c(c2)CCc2ccc(C(=O)NCCN4CCOCC4)cc2C3=O)ccc1F  inhibition (murine hepatitis virus; viral replication, nanoluciferase reporter; DBT; 1 µM, 10 h; baseline: DMSO vehicle): -11%
COC(=O)C1CCN(C(=O)c2ccc(NCc3cnc4nc(N)nc(N)c4n3)cc2)CC1  inhibition (Leishmania infantum; amastigote growth; THP-1-derived macrophages; 10 µM, 72 h): 14 ± 1%

Some of these lines once more:
Cc1c2c(nn1C)CSCc1cc(n(C)n1)CSc1cc(c3ccccc3c1)OCCCc1c(C(=O)O)n(C)c3c-2c(Cl)ccc13  log2 fold change (Staphylococcus aureus; label-free quantitative proteomics, refers to: SAOUHSC_00864 protein; SA113; concentration not given; baseline: untreated control): -5.3
CC1=C(C#N)[C@@H](c2ccc3[nH]nc(C)c3c2)C(C#N)=C(c2ccc(Cl)cc2)N1  inhibition (murine hepatitis virus; viral replication, nanoluciferase reporter; DBT; 1 µM, 10 h; baseline: DMSO vehicle): 0%
O=[N+]([O-])c1cc2cc3ccc4oc([N+](=O)[O-])cc4c3cc2o1  MIC90 (Mycobacterium avium subsp. hominissuis; REMA; ATCC 25291): 0.125 µg/mL (≈ 0.419 µM)
CCCCCCCCCCCCCCCC(=O)NS(=O)(=O)Oc1ccc(OC)cc1  MIC90 (Bacillus cereus; 1056): 3.13 µg/mL (≈ 7.09 µM)
